Assay results pooled from the literature.
Lines come from different studies, so protocols differ. ± marks the error that the study gave.
Cell line: MDA-MB-468

SMILES = O=S1(=O)CC2CCCCC2CS1 (centres unmarked); test = cell growth or viability, MTT; setting = 72 h; IC50 = 1.01 µM
SMILES = O=C(CCCCCCOc1ccc(Nc2ncc(F)c(-c3cn(C4CCCCC4)nn3)n2)cc1)NO; test = cell growth or viability, SRB; setting = 72 h; IC50 = 2.63 µM
SMILES = N=C(N)NCCC[C@H](NC(=O)[C@H](Cc1c[nH]c2ccccc12)NC(=O)[C@H](CCC(N)=O)NC(=O)[C@H](Cc1c[nH]c2ccccc12)NC(=O)[C@H](CCCNC(=N)N)NC(=O)[C@H](Cc1c[nH]c2ccccc12)NC(=O)[C@H](CCC(N)=O)NC(=O)[C@H](Cc1c[nH]c2ccccc12)NC(=O)[C@@H](N)CCCNC(=N)N)C(N)=O; test = cell growth or viability, MTT; IC50 = 49 µM
SMILES = CN1CCN(c2ccc(Nc3nccc(-c4cn(C5CCCC5)nn4)n3)cc2)CC1; test = cell growth or viability, SRB; setting = 72 h; IC50 = 7.96 µM
SMILES = O=C(/C=C/c1ccc2c(c1)C(=O)N(CCCc1ccccc1)CC2)NO; test = cell growth, SRB; setting = 72 h; IC50 = 1.57 ± 0.96 µM
SMILES = [C-]#[O+].[C-]#[O+].[C-]#[O+].[C-]#[O+].[C-]#[O+].[C-]#[O+].[Cl-].[Cl-].[Re+].[Re+].c1cnc(-c2ncccn2)nc1; test = cell growth or viability, MTT; setting = 48 h; IC50 = 105 µM
SMILES = CCCCCCCCCCCCCCn1c(-c2cccnc2)nc(-c2ccc(C)cc2)c1-c1ccc(C)cc1; test = cell growth or viability, SRB; setting = 24 h; IC50 = > 100 µM
SMILES = CC(C)Cn1cc(-c2nc(Nc3ccc(OCCCCCCC(=O)NO)cc3)ncc2F)nn1; test = cell growth or viability, SRB; setting = 72 h; IC50 = 2.33 µM
SMILES = CCCCn1c(-c2cccnc2)nc(-c2ccc(C)cc2)c1-c1ccc(C)cc1; test = cell growth or viability, SRB; setting = 48 h; IC50 = 49.2 µM
SMILES = Cc1ccc(C(C)C)cc1.O=C(N=P(c1ccccc1)(c1ccccc1)c1ccccc1)c1ccccn1.[Cl-].[Cl][Ru+]; test = cell growth or viability, resazurin; IC50 = 6.98 µM
SMILES = CCCCCCCCCCn1c(-c2cccnc2)nc(-c2ccc(C)cc2)c1-c1ccc(C)cc1; test = cell growth or viability, SRB; setting = 24 h; IC50 = > 100 µM
SMILES = C#Cc1cccc(Nc2ncnc3cc(OCCOC)c(OCCOC)cc23)c1; test = cell growth or viability, trypan blue; IC50 = > 20 µM
SMILES = O=C(CCCCCCN1CCN(c2ccc(Nc3ncc(F)c(-c4cn(C5CCCC5)nn4)n3)cc2)CC1)NO; test = cell growth or viability, SRB; setting = 72 h; IC50 = 1.34 µM
SMILES = c1ccc(-c2nc(-c3cccnc3)[nH]c2-c2ccccc2)cc1; test = cell growth or viability, SRB; setting = 24 h; IC50 = 94.6 µM

Repeated from above:
SMILES = CC(C)Cn1cc(-c2nc(Nc3ccc(OCCCCCCC(=O)NO)cc3)ncc2F)nn1; test = cell growth or viability, SRB; setting = 72 h; IC50 = 2.33 µM
SMILES = N=C(N)NCCC[C@H](NC(=O)[C@H](Cc1c[nH]c2ccccc12)NC(=O)[C@H](CCC(N)=O)NC(=O)[C@H](Cc1c[nH]c2ccccc12)NC(=O)[C@H](CCCNC(=N)N)NC(=O)[C@H](Cc1c[nH]c2ccccc12)NC(=O)[C@H](CCC(N)=O)NC(=O)[C@H](Cc1c[nH]c2ccccc12)NC(=O)[C@@H](N)CCCNC(=N)N)C(N)=O; test = cell growth or viability, MTT; IC50 = 49 µM
